Assay results of several laboratories.
Each numbered part is a random draw from the data of one study; scales do not carry over between parts. Substitutions count along the parent as printed.

Sample 1
Target: CCNA1, cyclin fold, Cln2 fusion (human)
Technique: yeast growth competition, sequencing
Matrix: yeast
Notes: weak parent motif
Baseline: not given
Direction: higher = stronger binding
Parent: CDT1 docking peptide (human); PPARRRLRLSVDE; partner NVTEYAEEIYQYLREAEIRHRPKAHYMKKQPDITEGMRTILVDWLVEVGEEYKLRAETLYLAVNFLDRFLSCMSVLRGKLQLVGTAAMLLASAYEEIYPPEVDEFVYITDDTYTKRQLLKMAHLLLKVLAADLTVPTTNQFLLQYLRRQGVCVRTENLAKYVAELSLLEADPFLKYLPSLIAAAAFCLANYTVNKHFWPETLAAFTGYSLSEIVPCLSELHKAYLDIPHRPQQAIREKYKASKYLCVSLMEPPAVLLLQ
Under “normalised enrichment score”, `PPARRRLALSVDE [R8A]` is recorded as 0.512.
Under “normalised enrichment score”, `PPARRALRLSVDE [R6A]` is recorded as 0.609.
`PPARRRLRLSADE [V11A]` — result for “normalised enrichment score”: 0.197.
`PAARRRLRLSVDE [P2A]`: “normalised enrichment score” 0.401.
For `PPARARLRLSVDE [R5A]`, “normalised enrichment score” read 0.0498.
`PPARRRLRLAVDE [S10A]` — result for “normalised enrichment score”: 0.118.
Under “normalised enrichment score”, `PPARKRLRLSVDE [R5K]` is recorded as 0.511.

Sample 2
Target: Histone acetyltransferase KAT6A, winged helix 2, GST fusion (KAT6A, Homo sapiens, UniProt Q92794, residues 85-181)
Technique: protein binding microarray
Molecule type: double-stranded DNA, one strand shown
Matrix: in vitro
Concentration: not given
Notes: 8-mer, flanks averaged, mean of 2 arrays, mostly near background
Baseline: not given
Direction: higher = stronger binding
Construct (chain): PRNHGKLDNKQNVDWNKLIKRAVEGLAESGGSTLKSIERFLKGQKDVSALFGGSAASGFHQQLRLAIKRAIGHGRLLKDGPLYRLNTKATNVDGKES
`GCTATGCC` has an E-score of -0.011.
The E-score of `GACTATCC` is reported as -0.168.
With `ACGCAGTG` the E-score was 0.0478.
The E-score of `CATGAGGG` is reported as -0.0141.
The E-score of `CCAAGTTC` is reported as -0.105.
The E-score of `CGAATGCA` is reported as 0.0265.
With `AGCTTCTG` the E-score was 0.0504.
With `CACTGTCA` the E-score was -0.0884.
For `CCTTGCAA`, the E-score was 0.00671.
For `CAGCCACC`, the E-score was 0.225.
With `CCTACACA` the E-score was -0.134.
`AGATGATC` has an E-score of -0.0255.
For `ATTATAGG`, the E-score was -0.0745.
`ATGTTTTA` gave an E-score of -0.0496.
The E-score of `AGTGGAGG` is reported as 0.0109.
For `GCCGTAGC`, the E-score was 0.132.

Sample 3
Target: Interferon regulatory factor 5, full length, phosphomimetic (IRF5, Homo sapiens, UniProt Q13568-2, residues 1-514, S451D/S453D/S456D/S462D)
Technique: protein-binding microarray
Molecule type: double-stranded DNA, one strand shown
Matrix: in vitro
Concentration: 940 nM top
Notes: 60-bp whole probe
Together with: salmon DNA 0.4 mg/ml
Baseline: random background probes
Direction: higher = stronger binding
Constant ends, left off below: GCCTAGCAC … GTCTTGATTCGCTTGACGCTGCTG
`TTAGGTATCCTTCTCCTTTCGTGCTAG`: “fitted relative affinity” 0.77 z-score.
For `TTAGAACTGAGACTGCATTAGTGCTAG`, “fitted relative affinity” read -0.109 z-score.
`GACGAGTTCAGTATCGAGACGTGCTAG` — result for “fitted relative affinity”: 2.78 z-score.
For `TCAGTTTTTACTTTCTGACTGTGCTAG`, “fitted relative affinity” read 1.47 z-score.
`TCAGTTTCCAAATTGTCACTGTGCTAG`: “fitted relative affinity” 0.806 z-score.
`GACGGTTTCATTCTCCTGACGTGCTAG` — result for “fitted relative affinity”: 5.52 z-score.
For `TTAGGTATCGGGCTTCGGTTAGTGCTA`, “fitted relative affinity” read 4.09 z-score.
`AGTGATAACTTTTTTTTTTCGTGCTAG`: “fitted relative affinity” 0.482 z-score.
Under “fitted relative affinity”, `TTAGGTATCCTACTGGTTTAGTGCTAG` is recorded as 0.438 z-score.
`AACGGTTTCGGTCTCGGGACGTGCTAG`: “fitted relative affinity” 13.7 z-score.
For `TTAGATATCGTGTATCGATTAGTGCTA`, “fitted relative affinity” read 0.643 z-score.
`TTAGGTGTCGGACTGGGTTAGTGCTAG`: “fitted relative affinity” -0.0818 z-score.
For `TTAGGTATCGACACTGGCTTAGTGCTA`, “fitted relative affinity” read 4.97 z-score.
Under “fitted relative affinity”, `GGAGAAAAATCATGAAAATAGTGCTAG` is recorded as -0.218 z-score.
For `TCACCTTCAGCTCTAGGACTGTGCTAG`, “fitted relative affinity” read -0.292 z-score.
`TTAGGTATCTTACTGCTTTAGTGCTAG` — result for “fitted relative affinity”: 0.372 z-score.
For `GACGGTCTCCTTTTCCTGTCGTGCTAG`, “fitted relative affinity” read 2.1 z-score.
`GCCGGTTTCGGGACTGGGGACGTGCTA`: “fitted relative affinity” 7.35 z-score.
Under “fitted relative affinity”, `GACGATATCGGGGATCGAGACGTGCTA` is recorded as 0.101 z-score.
Under “fitted relative affinity”, `GACGGACTGCTTCTACTGACGTGCTAG` is recorded as -0.188 z-score.
For `AAGGCTTTGCTTCCTGCAGAGTGCTAG`, “fitted relative affinity” read -0.472 z-score.
`GACGGTTTCGGGTGTCGGGACGTGCTA`: “fitted relative affinity” 8.78 z-score.
`TAAGATCTCAGTCTCGATTAGTGCTAG`: “fitted relative affinity” 3.28 z-score.
`CACGAACTGAGTCTCGAGACGTGCTAG`: “fitted relative affinity” 1.09 z-score.

Single results of other studies
With `PhoQ, residues 284 288 289 292 302 303 SLKLQV` the fold induction was 18.7 (PhoP, residues 12 14 15 18 19 GQALL (Escherichia coli, UniProt P23836); Sort-seq, item: YFP reporter; E. coli; PhoQ-PhoP variant library, together with: 10 µM Mg2+; baseline: high Mg2+ state, higher = stronger signaling).

For quick reference, copied from above (sample 2):
With `ACGCAGTG` the E-score was 0.0478.
With `CACTGTCA` the E-score was -0.0884.
With `CCTACACA` the E-score was -0.134.
